Measurements gathered from unrelated publications.
A part holds a random share of what one study measured. Changes are numbered by the printed parent chain.

Sample 1 — method: protein-binding microarray; molecule type: hairpin DNA; sample: in vitro; tested at: not given; relative to: not given; reading: higher = stronger binding; shared flanks, not repeated: GAGGCCA … TGGCCTCACACTC
Target: FOXO3, forkhead domain (mouse, UniProt Q9WVH4, residues 31-263)
Chain of UniProt Q9WVH4 (31-263, looked up): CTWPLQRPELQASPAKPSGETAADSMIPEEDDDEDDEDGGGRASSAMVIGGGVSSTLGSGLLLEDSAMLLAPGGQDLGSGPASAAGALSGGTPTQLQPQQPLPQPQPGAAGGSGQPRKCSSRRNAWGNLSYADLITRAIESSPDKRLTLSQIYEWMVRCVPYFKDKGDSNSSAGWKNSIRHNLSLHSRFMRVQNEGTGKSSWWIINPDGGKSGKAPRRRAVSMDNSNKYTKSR
Notes: whole hairpin DNA, median over replicate spots
With `TGTAAACAACGCCTCCTGGCGTTGTTTACA` the median fluorescence was 5720 a.u.
`TGCCAACAACGCCTCCTGGCGTTGTTGGCA (5mC at 11)` has a median fluorescence of 4560 a.u.
`TGTAACCATCGCCTCCTGGCGATGGTTACA` gave a median fluorescence of 3910 a.u.
`TGCAAACACCGCCTCCTGGCGGTGTTTGCA (5mC at 16)` has a median fluorescence of 4930 a.u.
For `TGTAAACAGCGCCTCCTGGCGCTGTTTACA`, the median fluorescence was 5150 a.u.
`AGTAAACAACGCCTCCTGGCGTTGTTTACT` gave a median fluorescence of 6190 a.u.
With `TGTACACAACGCCTCCTGGCGTTGTGTACA` the median fluorescence was 4640 a.u.
For `TGTAACCAAGGCCTCCTGGCCTTGGTTACA (5mC at 28)`, the median fluorescence was 3720 a.u.

Sample 2 — method: EMSA with sequencing; molecule type: double-stranded DNA, one strand shown; sample: in vitro; tested at: 10 and 20 nM; relative to: negative control set to 0; reading: higher = stronger binding
Target: Hepatocyte nuclear factor 3-alpha (Foxa1, Mus musculus, UniProt P35582, residues 1-468, full length assumed)
Notes: whole designed probe, mean of two concentrations, ends assumed
Residues (chain): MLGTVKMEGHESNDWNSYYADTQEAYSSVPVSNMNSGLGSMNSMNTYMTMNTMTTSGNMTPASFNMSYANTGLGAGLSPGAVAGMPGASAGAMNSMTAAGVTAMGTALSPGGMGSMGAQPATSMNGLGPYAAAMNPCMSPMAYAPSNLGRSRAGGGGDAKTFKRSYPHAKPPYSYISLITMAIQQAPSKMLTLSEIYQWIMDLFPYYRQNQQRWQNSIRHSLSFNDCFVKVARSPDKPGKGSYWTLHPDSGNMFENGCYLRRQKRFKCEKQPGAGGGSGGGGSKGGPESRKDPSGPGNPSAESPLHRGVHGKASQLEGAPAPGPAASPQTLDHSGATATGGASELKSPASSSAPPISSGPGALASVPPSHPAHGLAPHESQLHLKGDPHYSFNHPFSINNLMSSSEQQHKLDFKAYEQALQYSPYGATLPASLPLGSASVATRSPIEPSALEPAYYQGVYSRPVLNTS
`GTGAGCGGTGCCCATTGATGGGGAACCAGGAGAAAAGTTTTCCATTGAGAGGCTGGAGTGGAGCTCTAGGGATTGGTGGGGTTGTCACCAGCCATACCAGTGCATTCTAAGGCACAAGTTGTTTGCTTTGGCCCAGAAACAGCTGGCAGTTGGCCAGTGCCCAGCCACCTTGTCCTTTGCCCATGAAGGCTCTAGTAATTAGCAATATTCACCGAATGATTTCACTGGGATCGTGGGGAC` — result for “normalised bound fraction”: 0.29 ratio.
For `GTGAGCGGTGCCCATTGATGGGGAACAGGCCTTACCAAATGGAAGTTGCCCAGCCAGCCTTGGAAGGGAAGAATATCATCATCTGCCTCCCTACAGGGAGTGGAAAAACCAGAGTGGCTGTTTACATTGCCAAGGATCACTTAGACAAGAAGAAAAAAGCATCTGAGCCTGGAAAAGTTATAGTTCTTGTCAATAAGGTATTCAAAGAACACATAACACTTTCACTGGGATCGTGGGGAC`, “normalised bound fraction” read 0.252 ratio.
Under “normalised bound fraction”, `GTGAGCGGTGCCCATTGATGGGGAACCAAATCAAAAGACAAAAGAAACTAATCATTCCTTTTAAAGATAATTGCTGTTTTTATCAGATCAATAAAAAATGTGTTAACAACATTAAAAAGTAAACAAGCAAACACAAATGTCAAAAAAGCTAACCTAATGATGACATGTCACTTTCTCCAGTCCCAGCCCCACATCATATAGGAACTTTCCAACTGCCTGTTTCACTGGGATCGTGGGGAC` is recorded as 0.426 ratio.
`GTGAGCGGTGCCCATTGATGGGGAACTCTAAAATTTGGGGGGAAATTCTTGTTTTACACTGAAGCATAGAAATGACTCACATGGTTATACATTTTTCAAGAGCAATGCCCATGAATGAGTAATCTAGGAAGCATCTTCCTTGACAGCAACATCAGGGAAAGTCAGTCTTACTGATTAGTCTAGTGCAAGAGGTCACTGTCAAATTATATGCACACTCATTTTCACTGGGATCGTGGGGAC`: “normalised bound fraction” -0.0696 ratio.
`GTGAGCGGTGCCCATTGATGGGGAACCTGAACTCTGTCTTAAATTAGAAGATGTTTCAGATGTCAACAATGTGACTAGGCAGTCTTATGAAACATTAACCATCTCTTTGGTTGGTTGCTTGTGTACACACAAATATATTCATTCTTGGAATGCCTTGGGCCATTAAATACGTCTAAAGGTTTGATGCTGGGAAAACATGATGAGGGCCAAGGGGTCTTGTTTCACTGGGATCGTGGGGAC`: “normalised bound fraction” 0.331 ratio.

Mixed results
P1: viral docking peptide; KKAKRRLFTISDS; partner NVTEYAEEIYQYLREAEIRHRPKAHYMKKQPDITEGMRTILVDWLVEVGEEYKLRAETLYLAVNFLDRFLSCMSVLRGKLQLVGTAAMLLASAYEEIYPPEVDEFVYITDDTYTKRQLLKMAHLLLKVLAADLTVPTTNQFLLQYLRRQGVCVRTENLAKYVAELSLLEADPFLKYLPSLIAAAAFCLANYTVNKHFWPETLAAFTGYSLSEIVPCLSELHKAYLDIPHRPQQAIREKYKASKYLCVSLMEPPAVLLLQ
For `H2AZ1 (Homo sapiens, UniProt P0C0S5)`, interaction screen read “cross-linked” (AKAP11 (Homo sapiens, UniProt Q9UKA4); cross-linking MS; hits only).
Under “normalised enrichment score”, `P1 L7A` is recorded as 0.241 (CCNA1, cyclin fold, Cln2 fusion (human); yeast growth competition, sequencing; yeast; weak parent motif; relative to: not given, higher = stronger binding).
`UTP25 (Homo sapiens, UniProt Q68CQ4)` — result for cross-linked residues: “K756 to K1827” (HEATR1 (Homo sapiens, UniProt Q9H583); cross-linking MS; cell fractions; added: DSSO).

A few entries again (sample 1):
With `TGTAAACAACGCCTCCTGGCGTTGTTTACA` the median fluorescence was 5720 a.u.
